Experimental data from different studies.
A part holds a random share of what one study measured. Values joined by “and” are separate records of one study, mostly repeats; a detail may differ.
Chain of UniProt P52333 (whole entry, looked up): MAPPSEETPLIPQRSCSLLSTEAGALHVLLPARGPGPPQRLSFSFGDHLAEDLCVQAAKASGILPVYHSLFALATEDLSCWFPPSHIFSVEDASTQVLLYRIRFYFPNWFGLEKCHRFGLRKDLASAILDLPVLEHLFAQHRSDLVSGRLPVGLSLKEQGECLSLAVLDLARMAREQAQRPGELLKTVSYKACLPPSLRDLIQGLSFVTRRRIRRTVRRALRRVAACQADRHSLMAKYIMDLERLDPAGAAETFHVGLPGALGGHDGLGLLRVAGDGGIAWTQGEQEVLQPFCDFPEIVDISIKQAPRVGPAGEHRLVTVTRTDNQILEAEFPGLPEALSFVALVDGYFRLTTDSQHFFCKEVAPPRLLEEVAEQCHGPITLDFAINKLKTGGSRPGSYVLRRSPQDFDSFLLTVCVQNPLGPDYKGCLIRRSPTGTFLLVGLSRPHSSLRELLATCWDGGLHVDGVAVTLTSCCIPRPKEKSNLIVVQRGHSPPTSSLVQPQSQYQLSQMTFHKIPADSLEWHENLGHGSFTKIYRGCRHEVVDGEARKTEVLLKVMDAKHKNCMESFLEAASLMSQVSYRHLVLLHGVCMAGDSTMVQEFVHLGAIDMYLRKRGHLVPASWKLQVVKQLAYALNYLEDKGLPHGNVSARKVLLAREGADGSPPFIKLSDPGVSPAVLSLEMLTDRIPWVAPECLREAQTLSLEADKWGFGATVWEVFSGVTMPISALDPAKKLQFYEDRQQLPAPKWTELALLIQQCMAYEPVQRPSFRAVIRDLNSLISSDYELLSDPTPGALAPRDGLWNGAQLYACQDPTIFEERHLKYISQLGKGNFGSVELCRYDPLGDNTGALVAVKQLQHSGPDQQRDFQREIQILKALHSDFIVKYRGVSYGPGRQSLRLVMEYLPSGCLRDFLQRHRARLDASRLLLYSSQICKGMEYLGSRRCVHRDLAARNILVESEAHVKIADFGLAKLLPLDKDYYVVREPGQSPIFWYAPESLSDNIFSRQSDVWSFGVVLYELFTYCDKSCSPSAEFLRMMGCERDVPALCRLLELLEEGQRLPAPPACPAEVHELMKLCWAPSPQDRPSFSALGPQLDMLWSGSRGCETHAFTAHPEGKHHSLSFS
Chain of UniProt Q8WXR4 (whole entry, looked up): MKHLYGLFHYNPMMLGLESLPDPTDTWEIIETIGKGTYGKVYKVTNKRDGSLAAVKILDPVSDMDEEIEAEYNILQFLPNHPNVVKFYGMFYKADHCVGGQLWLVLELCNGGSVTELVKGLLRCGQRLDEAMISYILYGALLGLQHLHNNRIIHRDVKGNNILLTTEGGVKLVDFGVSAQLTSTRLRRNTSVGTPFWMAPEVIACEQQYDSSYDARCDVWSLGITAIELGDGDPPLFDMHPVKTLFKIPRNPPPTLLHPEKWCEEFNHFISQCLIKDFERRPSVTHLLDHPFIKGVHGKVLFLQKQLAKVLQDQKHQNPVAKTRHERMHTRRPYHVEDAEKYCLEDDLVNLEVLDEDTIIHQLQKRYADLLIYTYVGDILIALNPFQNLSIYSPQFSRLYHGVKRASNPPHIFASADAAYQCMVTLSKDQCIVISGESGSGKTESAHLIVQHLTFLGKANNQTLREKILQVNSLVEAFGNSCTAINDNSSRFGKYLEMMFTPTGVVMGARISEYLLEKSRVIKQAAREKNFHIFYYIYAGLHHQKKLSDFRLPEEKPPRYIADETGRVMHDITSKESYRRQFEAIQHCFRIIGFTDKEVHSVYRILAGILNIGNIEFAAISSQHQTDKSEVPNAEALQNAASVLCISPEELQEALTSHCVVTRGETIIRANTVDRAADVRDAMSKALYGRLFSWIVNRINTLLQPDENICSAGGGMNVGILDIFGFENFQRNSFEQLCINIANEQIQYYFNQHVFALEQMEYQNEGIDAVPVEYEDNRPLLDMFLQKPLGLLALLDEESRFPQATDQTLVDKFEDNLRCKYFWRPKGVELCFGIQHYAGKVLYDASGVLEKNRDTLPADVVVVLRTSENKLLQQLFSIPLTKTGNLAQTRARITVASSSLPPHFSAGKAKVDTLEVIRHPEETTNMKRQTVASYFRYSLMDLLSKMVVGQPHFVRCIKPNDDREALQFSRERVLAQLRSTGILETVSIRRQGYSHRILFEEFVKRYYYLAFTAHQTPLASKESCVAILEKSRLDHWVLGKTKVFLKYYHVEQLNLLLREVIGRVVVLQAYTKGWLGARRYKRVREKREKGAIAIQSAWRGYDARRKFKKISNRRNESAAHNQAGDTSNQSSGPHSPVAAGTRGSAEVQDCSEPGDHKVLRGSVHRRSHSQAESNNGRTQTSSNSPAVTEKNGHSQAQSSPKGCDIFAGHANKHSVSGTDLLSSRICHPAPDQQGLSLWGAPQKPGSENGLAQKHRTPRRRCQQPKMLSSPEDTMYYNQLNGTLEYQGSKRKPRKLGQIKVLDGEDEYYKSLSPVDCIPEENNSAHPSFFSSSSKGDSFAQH
Chain of UniProt P42681 (whole entry, looked up): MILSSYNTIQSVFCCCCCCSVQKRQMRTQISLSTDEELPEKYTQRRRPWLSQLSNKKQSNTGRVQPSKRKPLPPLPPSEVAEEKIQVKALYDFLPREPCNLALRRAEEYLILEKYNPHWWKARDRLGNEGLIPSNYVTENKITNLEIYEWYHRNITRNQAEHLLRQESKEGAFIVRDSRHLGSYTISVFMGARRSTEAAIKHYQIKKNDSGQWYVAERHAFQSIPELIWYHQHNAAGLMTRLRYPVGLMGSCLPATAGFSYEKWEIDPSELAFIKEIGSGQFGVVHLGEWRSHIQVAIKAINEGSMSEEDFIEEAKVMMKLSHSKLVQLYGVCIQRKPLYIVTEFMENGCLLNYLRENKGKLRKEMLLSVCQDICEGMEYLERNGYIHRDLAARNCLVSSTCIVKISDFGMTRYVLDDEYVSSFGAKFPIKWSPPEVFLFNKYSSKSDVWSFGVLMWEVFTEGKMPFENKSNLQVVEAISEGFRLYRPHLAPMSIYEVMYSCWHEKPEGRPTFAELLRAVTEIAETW
Chain of UniProt P51817 (whole entry, looked up): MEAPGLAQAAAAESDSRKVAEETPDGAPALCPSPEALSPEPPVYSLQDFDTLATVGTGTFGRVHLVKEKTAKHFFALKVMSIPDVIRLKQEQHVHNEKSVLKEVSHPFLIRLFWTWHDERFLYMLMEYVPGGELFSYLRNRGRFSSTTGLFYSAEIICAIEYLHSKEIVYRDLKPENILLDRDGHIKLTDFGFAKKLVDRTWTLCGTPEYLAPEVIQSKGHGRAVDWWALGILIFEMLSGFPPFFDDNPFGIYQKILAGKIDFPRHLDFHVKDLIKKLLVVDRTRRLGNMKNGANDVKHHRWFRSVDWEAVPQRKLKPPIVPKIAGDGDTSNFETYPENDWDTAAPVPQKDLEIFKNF
Chain of UniProt Q02750 (whole entry, looked up): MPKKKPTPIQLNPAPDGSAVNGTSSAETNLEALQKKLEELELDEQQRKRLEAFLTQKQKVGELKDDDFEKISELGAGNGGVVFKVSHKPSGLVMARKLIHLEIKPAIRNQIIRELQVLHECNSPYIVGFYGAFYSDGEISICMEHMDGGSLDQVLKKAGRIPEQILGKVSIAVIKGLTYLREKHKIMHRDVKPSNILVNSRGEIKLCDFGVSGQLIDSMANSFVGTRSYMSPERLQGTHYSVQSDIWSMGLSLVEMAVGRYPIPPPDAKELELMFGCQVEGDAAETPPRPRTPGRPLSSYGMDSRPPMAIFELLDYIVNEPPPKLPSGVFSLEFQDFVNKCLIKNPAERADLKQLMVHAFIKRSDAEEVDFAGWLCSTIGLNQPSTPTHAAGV
Chain of UniProt Q9NRM7 (whole entry, looked up): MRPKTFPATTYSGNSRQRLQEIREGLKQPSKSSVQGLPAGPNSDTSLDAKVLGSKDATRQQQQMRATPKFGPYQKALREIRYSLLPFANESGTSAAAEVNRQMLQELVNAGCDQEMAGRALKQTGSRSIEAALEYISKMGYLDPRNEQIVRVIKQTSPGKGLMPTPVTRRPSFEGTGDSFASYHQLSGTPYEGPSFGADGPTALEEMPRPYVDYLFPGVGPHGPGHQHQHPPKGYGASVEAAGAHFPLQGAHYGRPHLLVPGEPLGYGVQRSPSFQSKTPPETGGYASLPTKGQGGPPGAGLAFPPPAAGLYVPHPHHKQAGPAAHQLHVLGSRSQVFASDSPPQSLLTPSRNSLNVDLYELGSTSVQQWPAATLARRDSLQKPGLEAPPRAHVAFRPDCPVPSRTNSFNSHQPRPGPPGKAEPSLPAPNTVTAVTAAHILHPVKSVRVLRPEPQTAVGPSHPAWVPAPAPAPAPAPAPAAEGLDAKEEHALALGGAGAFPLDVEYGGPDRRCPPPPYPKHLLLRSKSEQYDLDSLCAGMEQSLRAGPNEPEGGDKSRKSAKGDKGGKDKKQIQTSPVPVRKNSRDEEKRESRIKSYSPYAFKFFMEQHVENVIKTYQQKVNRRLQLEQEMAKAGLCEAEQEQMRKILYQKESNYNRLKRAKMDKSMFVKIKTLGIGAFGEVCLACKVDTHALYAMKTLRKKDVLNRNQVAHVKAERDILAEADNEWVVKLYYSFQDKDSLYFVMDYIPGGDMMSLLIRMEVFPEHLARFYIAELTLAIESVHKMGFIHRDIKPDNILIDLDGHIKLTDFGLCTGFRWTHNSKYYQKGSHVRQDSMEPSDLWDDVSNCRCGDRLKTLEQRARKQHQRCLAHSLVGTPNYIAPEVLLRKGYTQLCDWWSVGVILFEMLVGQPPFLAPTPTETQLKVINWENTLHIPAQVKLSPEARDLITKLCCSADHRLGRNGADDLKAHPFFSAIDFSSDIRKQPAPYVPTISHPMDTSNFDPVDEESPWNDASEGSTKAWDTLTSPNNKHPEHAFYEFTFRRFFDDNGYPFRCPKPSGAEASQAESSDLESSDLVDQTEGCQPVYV

Sample 1 — cell line: mouse MPNST tumor cells; method: high-content nuclear imaging; measured: cell number; concentration: 10 µM; time: 12 h; notes: mean of 2 replicates; reference: plate mean; reading: higher = more cells; quantity: nuclei count
CNC[C@H](O)[C@@H](O)[C@H](O)[C@H](O)CO: 2.13 z-score
CN1c2cc3c(cc2N=C(c2ccc(C(=O)O)cc2)c2ccccc21)C(C)(C)CCC3(C)C: -0.929 z-score
Cc1ccsc1/C=C/C1=NCCCN1C: 0.552 z-score
CC[C@H](C)C(=O)O[C@H]1C[C@@H](C)C=C2C=C[C@H](C)[C@H](CC[C@@H]3C[C@@H](O)CC(=O)O3)[C@H]21: -4.72 z-score and -4.42 z-score
Cc1cccc(C)c1NC(=O)CN1CCN(CCCC(c2ccc(F)cc2)c2ccc(F)cc2)CC1: -4.97 z-score
O=C(NC/C=C/CN1CCN(c2cccc(Cl)c2Cl)CC1)c1ccc(-c2ccccn2)cc1: 0.0685 z-score

Sample 2 — observed: cell-free assay; method: competition with immobilised ligand; concentration: 1 µM; quantity: remaining binding
SMILES: O=C(N1CCS(=O)(=O)CC1)N1C[C@H](c2ccc(OC(F)(F)F)cc2)C[C@H](c2nc(C3CC3)no2)C1
Tyrosine-protein kinase ABL1, phosphorylated (ABL1, Homo sapiens, UniProt P00519, M351T): 100%
Vascular endothelial growth factor receptor 2 (KDR, Homo sapiens, UniProt P35968): 88%
Tyrosine-protein kinase JAK3, JH1 (JAK3, Homo sapiens, UniProt P52333): 100%
Serine/threonine-protein kinase LATS2 (LATS2, Homo sapiens, UniProt Q9NRM7): 100%
Serine/threonine-protein kinase PLK2 (PLK2, Homo sapiens, UniProt Q9NYY3): 100%
cAMP-dependent protein kinase catalytic subunit PRKX (PRKX, Homo sapiens, UniProt P51817): 100%
Atypical kinase COQ8A, mitochondrial (COQ8A, Homo sapiens, UniProt Q8NI60): 100%
Bone morphogenetic protein receptor type-2 (BMPR2, Homo sapiens, UniProt Q13873): 100%

Sample 3 — observed: enzyme activity; action: inhibitor; concentration: 0.5 µM; reference: control; quantity: remaining activity
Structure (SMILES): CCN(CC)CCNC(=O)c1c(C)[nH]c(/C=C2\C(=O)Nc3ccc(F)cc32)c1C
Dual specificity protein kinase CLK3 (CLK3, Homo sapiens, UniProt P49761): 105%
Misshapen-like kinase 1 (MINK1, Homo sapiens, UniProt Q8N4C8): 10.5%
Tyrosine-protein kinase TXK (TXK, Homo sapiens, UniProt P42681): 92.6%
Rho-associated protein kinase 1 (ROCK1, Homo sapiens, UniProt Q13464): 99.7%
Myosin-IIIb (MYO3B, Homo sapiens, UniProt Q8WXR4): 54.5%
Dual specificity mitogen-activated protein kinase kinase 1 (MAP2K1, Homo sapiens, UniProt Q02750): 67.8%
Discoidin domain-containing receptor 2 (DDR2, Homo sapiens, UniProt Q16832): 154%
Serine/threonine-protein kinase PLK3 (PLK3, Homo sapiens, UniProt Q9H4B4): 96.5%
Calcium/calmodulin-dependent protein kinase type IV (CAMK4, Homo sapiens, UniProt Q16566): 88.6%
Serine/threonine-protein kinase DCLK2 (DCLK2, Homo sapiens, UniProt Q8N568): 85%
Mitogen-activated protein kinase 1 (MAPK1, Homo sapiens, UniProt P28482): 98.5%
Cyclin-dependent kinase 1, with cyclin A (CDK1, Homo sapiens, UniProt P06493): 98.4%
Serine/threonine-protein kinase MRCK beta (CDC42BPB, Homo sapiens, UniProt Q9Y5S2): 101%
MAP/microtubule affinity-regulating kinase 4 (MARK4, Homo sapiens, UniProt Q96L34): 24.7%
Cyclin-dependent kinase 9, with cyclin K (CDK9, Homo sapiens, UniProt P50750): 80.2%
Mitogen-activated protein kinase 14 (MAPK14, Homo sapiens, UniProt Q16539): 105%
Calcium/calmodulin-dependent protein kinase type 1B (PNCK, Homo sapiens, UniProt Q6P2M8): 98.5%

Sample 4 — cell line: HaCaT; concentration: 100 µM; time: 18 h; quantity: viability
COc1ccc([C@@H]2Sc3ccccc3N(CCN(C)C)C(=O)[C@@H]2OC(C)=O)cc1: 84.2%
Cc1cn([C@H]2O[C@@H](CO)[C@H](O)[C@H]2F)c(=O)[nH]c1=O: 99.4%
CC(=O)Oc1cc2c(s1)CCN(C(C(=O)C1CC1)c1ccccc1F)C2 (centres unmarked): 77.3%
CN[C@@H]1[C@H](O[C@H]2[C@H](O[C@H]3[C@H](O)[C@@H](O)[C@H](NC(=N)N)[C@@H](O)[C@@H]3NC(=N)N)O[C@@H](C)[C@]2(O)CO)O[C@@H](CO)[C@H](O)[C@H]1O: 111%
NC(=O)c1ncn([C@@H]2O[C@H](CO)[C@@H](O)[C@H]2O)c1O: 111%
C[C@@H](NCCCc1cccc(C(F)(F)F)c1)c1cccc2ccccc12: 18.8%
Oc1c(I)cc(Cl)c2cccnc12: 121%

Excerpt of the above (sample 1):
CC[C@H](C)C(=O)O[C@H]1C[C@@H](C)C=C2C=C[C@H](C)[C@H](CC[C@@H]3C[C@@H](O)CC(=O)O3)[C@H]21: -4.72 z-score and -4.42 z-score
Cc1ccsc1/C=C/C1=NCCCN1C: 0.552 z-score
CNC[C@H](O)[C@@H](O)[C@H](O)[C@H](O)CO: 2.13 z-score
